Published values from different studies.
± gives the spread as reported. ≈ marks a conversion by molar mass, not a printed value.

| Compound | assay | test system | conditions | how to read | quantity | result |
| --- | --- | --- | --- | --- | --- | --- |
| CSCC[C@@H]1NC(=O)[C@H](CC(=O)O)NC(=O)CNC(=O)[C@H](CCCNC(=N)N)NC(=O)[C@H](C)NC(=O)[C@H](CCC(=O)O)NC(=O)[C@H](CCCNC(=N)N)NC(=O)[C@@H]2CSSC[C@@H]3NC(=O)[C@H](CO)NC(=O)[C@H]([C@@H](C)O)NC(=O)[C@@H]4CCCN4C(=O)[C@H](C)NC(=O)[C@H](Cc4c[nH]c5ccccc45)NC(=O)[C@H](CC(=O)O)NC(=O)CNC(=O)[C@H](CCCNC(=N)N)NC(=O)CNC(=O)[C@H](CCC(N)=O)NC(=O)[C@@H]4CCCN4C(=O)[C@@H](NC(=O)CNC(=O)C(C)F)CSSC[C@H](NC(=O)CNC(=O)[C@H](C)NC(=O)[C@H](CC(C)C)NC(=O)[C@H](CSSC[C@@H](C(=O)NCC(N)=O)NC(=O)[C@H]([C@@H](C)O)NC(=O)[C@H](CCCNC(=N)N)NC(=O)[C@@H]4CCCN4C1=O)NC(=O)[C@H](CC(=O)O)NC(=O)[C@H](CO)NC(=O)[C@H](CC(=O)O)NC(=O)[C@H](CCC(N)=O)NC(=O)[C@H](CO)NC3=O)C(=O)N[C@@H](C(C)C)C(=O)N2 (some centres unmarked) [fluorine-18 labelled] | – | nude mice, U-87 MG xenograft, tumor | intravenous, 2.5 h, with: cyclo(RGDyK) 330 µg coinjected | – | tissue uptake | 0.41 ± 0.12 %ID/g |
| NC(=O)c1nc(F)c[nH]c1=O | UV-Vis spectrophotometry | supercritical CO2 | 120 min, 338 K, 15 MPa, 555.23 kg/m^3 | – | solubility | 74 µg/mL (≈ 471 µM) |
| CC[C@@]1(O)C(=O)OCc2c1cc1n(c2=O)Cc2cc3c(CN(C)C)c(O)ccc3nc2-1 | – | human patients, plasma | oral, 2.5 mg daily for 5 days, day 5 cycle 1, geometric mean, alone | – | AUC(0-inf) | 48.7 ng·h/mL |
| CN[C@@](C)(C[18F])C(=O)O | – | SCID mouse A549 xenograft, heart | 120 min, post injection | – | tissue uptake | 3.7 ± 0.6 %ID/g |
| Cc1ccc([C@H]2C[C@@H]2COc2cc(NCc3nnc(C)s3)nc(C)n2)nc1 | – | rat (novel object recognition), plasma | oral, 0.25 mg/kg, 1 h | – | plasma concentration | 29 nM |
| O[C@H]1CCCN[C@@H]1CCCn1cnc2c(Cl)c(Cl)ccc21 | – | healthy human volunteers, plasma | oral, 200 mg, day 1, multiple ascending dose | – | AUC(0-tau) | 741 ng·h/mL |
| CC(C)C[C@H](NC(=O)[C@H](CCC(=O)O)NC(=O)[C@H](CCC(=O)O)NC(=O)[C@H](CC(=O)O)NC(=O)[C@H](CCC(=O)O)NC(=O)[C@H](CCC(=O)O)NC(=O)[C@H](CCC(=O)O)NC(=O)[C@@H](N)CC(=O)O)C(=O)O | – | rat, CSF | intravenous, 11.0 mg/kg, 60 min | – | concentration | 19.2 ng/mL |
| Clc1cc2c(cc1Cl)Oc1cc(Cl)c(Cl)cc1O2 | – | zebrafish (Danio rerio) embryo, whole embryo, dry weight | waterborne, 1 ppb, 24 hpf | – | internal concentration | 0.67 ppt |
| O=C(c1ccc(F)c(F)c1Nc1ccc(I)cc1F)N1CC(O)([C@@H]2CCCCN2)C1 | refers to: retinal detachment | human patients | oral, dose not given, dose escalation, tablet, grade G4 | – | treatment-related adverse events | 0% |
| CC[C@H](C)[C@H](NC(=O)[C@@H](N)CCCNC(=N)N)C(=O)N[C@H](C(=O)N1CCC[C@H]1C(=O)N[C@@H](C)C(N)=O)C(C)C | – | healthy volunteers, both sexes, plasma | intravenous infusion, 4.5 mg/kg daily, day 7, multiple ascending dose | – | AUC(0-t) | 1470 ± 677 ng·h/mL |
| Cc1ccc(Nc2nccc(N(C)c3ccc4c(C)n(C)nc4c3)n2)cc1S(N)(=O)=O | – | patients, plasma | oral, 800 mg, 24 h, fasted, geometric mean, with: omeprazole | – | Cmin | 22800 ng/mL |
| ClC(Cl)(Cl)Cl | – | Sprague-Dawley rat, male, liver | oral, 50 mg/kg, 24 h, single low dose | direction not given | hepatocyte vacuolization score | 0 |
| Cc1cnc(C(=O)N[C@H]2CCCCC/C=C\[C@@H]3C[C@@]3(C(=O)NS(=O)(=O)C3CC3)NC(=O)[C@@H]3C[C@@H](Oc4nc5ccccc5c5ccccc45)CN3C2=O)cn1 | – | healthy human volunteers, plasma | oral, dose not given, rosuvastatin interaction study | baseline: given without rosuvastatin | AUC(0-24) | 2010 ng·h/mL |
| C[N+](C)(C)[C@@H](Cc1c[nH]c(=S)[nH]1)C(=O)[O-] | – | rat treated with 1,25-dihydroxyvitamin D3, spleen | intravenous | baseline: untreated control rats | decrease in tissue partition coefficient | 69% |
| CCCCCOc1ccc(-c2ccc(-c3ccc(C(=O)N[C@H]4C[C@@H](O)[C@@H](O)NC(=O)[C@@H]5[C@@H](O)[C@@H](C)CN5C(=O)[C@H]([C@@H](C)O)NC(=O)[C@H]([C@H](O)[C@@H](O)c5ccc(O)cc5)NC(=O)[C@@H]5C[C@@H](O)CN5C(=O)[C@H]([C@@H](C)O)NC4=O)cc3)cc2)cc1 | – | patients aged 5 to <sample A years, plasma | intravenous, loading 3.0 then 1.5 mg/kg daily | – | AUC(0-24) steady state mean | 86800 ng·h/mL |
| CCCCCCCCCCCC[N+](C)(C)CCCCCCCCCCCC | substrate depletion | human liver microsomes | 0.5 µM, 0 to 3 h, 37 °C, with: NADPH | – | intrinsic clearance | 0.161 mL/h/mg protein |
| CC(=O)N[C@H](CCCCNC(=O)C(C)F)C(=O)N[C@@H](CS)C(=O)N[C@@H](CS)C(=O)N[C@@H](CCC(=O)O)C(=O)N[C@@H](Cc1c[nH]cn1)C(=O)N[C@H](Cc1ccccc1)C(=O)N[C@@H](CCCNC(=N)N)C(=O)N[C@@H](Cc1c[nH]c2ccccc12)C(=O)N[C@@H](CS)C(=O)N[C@@H](CCCNC(=N)N)C(=O)N1CCC[C@H]1C(=O)N[C@H](C(N)=O)C(C)C (some centres unmarked) [fluorine-18 labelled] | – | C57BL/6 mice, B16-F10 tumour, liver | intravenous, 2 h | – | liver uptake | 1.97 ± 0.17 %ID/g |
| CNC(=O)c1ccc(-c2cnn3ccc(C(=O)N(C)c4ccc(Cl)c(C(=O)OC)c4)cc23)cc1 | – | beagle dogs, both sexes, plasma | oral, 25 mg/kg/dose, 50 mg/kg/day, day 1 | – | Cmax | 29.4 ng/mL |
| CC(C)[C@@](O)(C(=O)OCC1=CC[N+]2([O-])CC[C@@H](O)[C@@H]12)[C@@H](C)O (some centres unmarked) | – | human whole blood | 1000 ng/mL, 60 min, 37 °C | – | blood-to-plasma ratio | 0.689 |
| CC(=O)N[C@H](C(=O)N[C@@H](CO)C(=O)N[C@@H](CCCNC(=N)N)C(=O)N[C@@H](CCCNC(=N)N)C(=O)N[C@@H](CCCNC(=N)N)C(N)=O)C(C)C | – | healthy adults | intravenous infusion, 1 mg/kg every 6 h, over 30 min, minimum among subjects | baseline: dose 2 over dose 1 | AUC(tau) accumulation ratio | 0.9 |
| CN1/C(=C/C=C2\CCCC(/C=C/C3=[N+](C)c4ccccc4C3(C)C)=C2c2ccc(CCCCCCCCCCCCCCCCCCOP(=O)(O)OCC[N+](C)(C)C)cc2)C(C)(C)c2ccccc21 | – | octanol/water | 48 h, pH 7.4, room temperature | – | logD | 4.66 |
| [123I]c1cncc(OC[C@@H]2CCN2)c1 | SPECT | human, fusiform gyrus | intravenous bolus, 8.6 mCi | baseline: tissue over plasma | tissue/plasma ratio | 12.7 |
| O=S(=O)(O)Oc1ccc(-c2cccc(Cl)c2)cc1Cl | – | Sprague-Dawley rat (male) | iv, 575 µg/kg, 24 h | – | dose fraction not recovered | 96% |

Excerpt of the above:
| Compound | assay | test system | conditions | how to read | quantity | result |
| --- | --- | --- | --- | --- | --- | --- |
| CCCCCOc1ccc(-c2ccc(-c3ccc(C(=O)N[C@H]4C[C@@H](O)[C@@H](O)NC(=O)[C@@H]5[C@@H](O)[C@@H](C)CN5C(=O)[C@H]([C@@H](C)O)NC(=O)[C@H]([C@H](O)[C@@H](O)c5ccc(O)cc5)NC(=O)[C@@H]5C[C@@H](O)CN5C(=O)[C@H]([C@@H](C)O)NC4=O)cc3)cc2)cc1 | – | patients aged 5 to <sample A years, plasma | intravenous, loading 3.0 then 1.5 mg/kg daily | – | AUC(0-24) steady state mean | 86800 ng·h/mL |
| CCCCCCCCCCCC[N+](C)(C)CCCCCCCCCCCC | substrate depletion | human liver microsomes | 0.5 µM, 0 to 3 h, 37 °C, with: NADPH | – | intrinsic clearance | 0.161 mL/h/mg protein |
